# Measured values gathered from unrelated publications.
# Each line is one published result; not all experiments were run side by side. Numbers after ± are the reported error.
SMILES,tested on,test,system,setting,measurement,result
O=C(NCc1ccc(F)cc1F)c1c(O)c2cccnc2n(O)c1=O,HIV-1,viral replication,"infected cells, integrase G140S/Q148H mutant",,EC50,308 ± 125 nM
CC[C@H](C)[C@H](NC(=O)[C@H](CO)NC(=O)[C@H](Cc1ccc(O)cc1)NC(=O)[C@H](CC(=O)O)NC(=O)[C@H](CO)NC(=O)[C@@H](NC(=O)[C@H](Cc1ccccc1)NC(=O)[C@@H](NC(=O)CNC(=O)[C@H](CCC(=O)O)NC(=O)[C@@H](C)NC(=O)[C@@H](N)Cc1ccc(O)cc1)[C@@H](C)O)[C@@H](C)CC)C(=O)N[C@@H](C)C(=O)N[C@@H](CCSC)C(=O)N[C@@H](CC(=O)O)C(=O)N[C@@H](CCCCN)C(=O)N[C@H](C(=O)N[C@@H](Cc1c[nH]cn1)C(=O)N[C@@H](CCC(N)=O)C(=O)N[C@@H](CCC(N)=O)C(=O)N[C@@H](CC(=O)O)C(=O)N[C@@H](Cc1ccccc1)C(=O)N[C@H](C(=O)N[C@@H](CC(N)=O)C(=O)N[C@@H](Cc1c[nH]c2ccccc12)C(=O)N[C@@H](CC(C)C)C(=O)N[C@@H](CC(C)C)C(=O)N[C@@H](C)C(=O)N[C@@H](CCC(N)=O)C(=O)N[C@@H](CCCCN)C(=O)N1CCC[C@H]1C(=O)N[C@@H](CO)C(=O)N[C@@H](CO)C(=O)NCC(=O)N[C@@H](C)C(=O)N1CCC[C@H]1C(=O)N1CCC[C@H]1C(=O)N1CCC[C@H]1C(=O)N[C@@H](CO)C(N)=O)C(C)C)[C@@H](C)CC,,,human plasma,"5 h, 37 °C",metabolic stability,stable
N#Cc1ccc(Nc2nccc(C(=O)c3c(F)cc(F)cc3F)n2)cc1,HIV-1,viral replication,"MT4, RT K103N mutant",,EC50,6880 nM
CCCCCCCCCCCCCCCC(=O)N[C@@H](CCC(=O)NCCCC[C@H](NC(=O)[C@H](CC(=O)O)NC(=O)[C@H](CO)NC(=O)[C@@H](NC(=O)[C@H](Cc1ccccc1)NC(=O)[C@@H](NC(=O)CNC(=O)[C@H](CCC(N)=O)NC(=O)[C@H](C)NC(=O)[C@@H](Cc1ccc(O)cc1)NC(C)=O)[C@@H](C)O)[C@@H](C)O)C(=O)N[C@@H](CO)C(=O)N[C@@H](CCCCN)C(=O)N[C@@H](Cc1ccc(O)cc1)C(=O)N[C@@H](CC(C)C)C(=O)N[C@@H](CC(=O)O)C(=O)N[C@@H](CCC(=O)O)C(=O)N[C@@H](CCCNC(=N)N)C(=O)N[C@@H](C)C(=O)N[C@@H](C)C(=O)N[C@@H](CCC(N)=O)C(=O)N[C@@H](CC(=O)O)C(=O)N[C@@H](Cc1ccccc1)C(=O)N[C@H](C(=O)N[C@@H](CCC(N)=O)C(=O)N[C@@H](Cc1c[nH]c2ccccc12)C(=O)N[C@@H](CC(C)C)C(=O)N[C@@H](CC(C)C)C(=O)N[C@@H](CCC(=O)O)C(=O)NCC(=O)NCC(=O)N1CCC[C@H]1C(=O)N[C@@H](CO)C(=O)N[C@@H](CO)C(=O)NCC(=O)N[C@@H](C)C(=O)N1CCC[C@H]1C(=O)N1CCC[C@H]1C(=O)N1CCC[C@H]1C(=O)N[C@@H](CO)C(N)=O)C(C)C)C(=O)O,,,"Wistar rat, male","subcutaneous, 0.02 mg/kg",Tmax,2 to 4 h
Cc1cc(C)cc(S(=O)(=O)c2c(C(N)=O)[nH]c3ccc(Cl)cc23)c1,HIV-1,viral replication,"MT-4, L100I mutant",,EC50,15 ± 8.6 nM
Cc1cc(/C=C/C#N)cc(C)c1-n1cnc2cnc(Nc3ccc(C#N)cc3)nc21,HIV-1,"viral replication, single-round infection",RT mutant V106A/F227L,,EC50,2.9 ± 0.3 nM
O=C(NCc1ccc(F)cc1F)c1cc2cccnc2n(O)c1=O,HIV-1,viral replication,"infected cells, integrase Y143R mutant",,EC50,4.9 ± 0.8 nM
CC[C@H](C)[C@H](NC(=O)[C@H](CCCN)NC(=O)[C@H](CC(=O)O)NC(=O)[C@H](CC(C)C)NC(=O)C(C)(CC(C)C)NC(=O)[C@@H](NC(=O)[C@H](CO)NC(=O)[C@H](Cc1ccc(O)cc1)NC(=O)[C@H](CC(=O)O)NC(=O)[C@H](CO)NC(=O)[C@@H](NC(=O)[C@H](Cc1ccccc1)NC(=O)[C@@H](NC(=O)CNC(=O)[C@H](CCC(=O)O)NC(=O)C(C)(C)NC(=O)[C@@H](N)Cc1ccc(O)cc1)[C@@H](C)O)[C@@H](C)CC)[C@@H](C)CC)C(=O)N[C@@H](Cc1c[nH]cn1)C(=O)N[C@@H](CCC(N)=O)C(=O)NC(C)(C)C(=O)N[C@@H](CC(=O)O)C(=O)N[C@@H](Cc1ccccc1)C(=O)N[C@H](C(=O)N[C@@H](CCC(=O)O)C(=O)N[C@@H](Cc1ccc(O)cc1)C(=O)N[C@@H](CCCCNC(=O)COCCOCCNC(=O)COCCOCCNC(=O)CC[C@H](NC(=O)CCCCCCCCCCCCCCCCCCC(=O)O)C(=O)O)C(=O)N[C@@H](CC(C)C)C(=O)N[C@@H](CCC(=O)O)C(=O)NCC(=O)NCC(=O)N1CCC[C@H]1C(=O)N[C@@H](CO)C(=O)N[C@@H](CO)C(=O)NCC(=O)N[C@@H](C)C(=O)N1CCC[C@H]1C(=O)N1CCC[C@H]1C(=O)N1CCC[C@H]1C(=O)N[C@@H](CO)C(N)=O)C(C)C (stereo partly drawn),,,healthy human,"subcutaneous, 25 mg single dose, geometric mean",terminal half-life,288 h
CCCCCCCCCCCCCCCC(=O)N[C@@H](CCC(=O)NCCOCCOCCC(=O)NCCOCCOCCC(=O)NCCCC[C@H](NC(=O)[C@H](CC(=O)O)NC(=O)[C@H](CC(C)C)NC(=O)[C@H](Cc1ccc(O)cc1)NC(=O)[C@H](CCCCN)NC(=O)[C@H](CO)NC(=O)[C@H](Cc1ccc(O)cc1)NC(=O)[C@H](CC(=O)O)NC(=O)[C@H](CO)NC(=O)[C@@H](NC(=O)[C@H](Cc1ccccc1)NC(=O)[C@@H](NC(=O)CNC(=O)[C@H](CCC(N)=O)NC(=O)[C@@H](CO)NC(=O)[C@@H](N)Cc1c[nH]cn1)[C@@H](C)O)[C@@H](C)O)C(=O)N[C@@H](CCCNC(=N)N)C(=O)N[C@@H](CCCNC(=N)N)C(=O)N[C@@H](C)C(=O)N[C@@H](CCC(N)=O)C(=O)N[C@@H](CC(=O)O)C(=O)N[C@@H](Cc1ccccc1)C(=O)N[C@H](C(=O)N[C@@H](CCC(N)=O)C(=O)N[C@@H](Cc1c[nH]c2ccccc12)C(=O)N[C@@H](CC(C)C)C(=O)N[C@@H](CC(C)C)C(=O)N[C@@H](CC(N)=O)C(=O)N[C@H](C(=O)NCC(=O)NCC(=O)N1CCC[C@H]1C(=O)N[C@@H](CO)C(=O)N[C@@H](CO)C(=O)NCC(=O)N[C@@H](C)C(=O)N1CCC[C@H]1C(=O)N1CCC[C@H]1C(=O)N1CCC[C@H]1C(=O)N[C@@H](CO)C(N)=O)[C@@H](C)O)C(C)C)C(=O)O,,item: ALP,"rhesus monkey, female","subcutaneous, 60 µg/kg once daily, 28 days",serum enzyme activity,260 ± 65.2 U/L
Cc1cccc(-c2cc(C#N)cc(Oc3c(C(F)(F)F)ccn(Cc4n[nH]c(=O)n4C)c3=O)c2)c1,HIV-1,viral cytopathicity,"MT4, Y188L mutant",,EC50,760 ± 130 nM
CC(C)N1CCn2cc(C(=O)NCc3ccc(F)cc3F)c(=O)c(O)c2C1=O,HIV-1,"viral replication, single-round vector infection",IN T97A/G140S/Q148H,,EC50,103 ± 12.4 nM
COc1cc(F)c(C(=O)c2ccnc(Nc3ccc(C#N)cc3)n2)c(F)c1,HIV-1,viral replication,"MT4, RT K103N mutant",,EC50,347 nM
CC(C)n1ccn2cc(C(=O)NCc3ccc(F)cc3F)c(=O)c(O)c2c1=O,HIV-1,"viral replication, single-round vector infection",IN E138A/G140S/Q148H,,EC50,147 ± 15.4 nM
CC[C@H](C)[C@H](NC(=O)[C@H](CCCCN)NC(=O)[C@H](CCCCN)NC(=O)[C@H](CC(C)C)NC(=O)[C@H](Cc1c[nH]c2ccccc12)NC(=O)CN)C(=O)NCC(=O)N[C@@H](CCCCN)C(=O)N[C@@H](CCCCN)C(=O)N[C@H](C(=O)N[C@@H](CCC(=O)O)C(=O)N[C@@H](CCCNC(=N)N)C(=O)N[C@H](C(=O)NCC(=O)N[C@@H](CCC(N)=O)C(=O)N[C@@H](Cc1c[nH]cn1)C(=O)N[C@H](C(=O)N[C@@H](CCCNC(=N)N)C(=O)N[C@@H](CC(=O)O)C(=O)N[C@@H](C)C(=O)N[C@H](C(=O)N[C@H](C(=O)N[C@@H](CCC(N)=O)C(=O)N[C@H](C(=O)N[C@H](C(=O)NCC(=O)N[C@H](C(=O)N[C@@H](C)C(=O)N[C@@H](CCC(N)=O)C(=O)N[C@@H](CCC(N)=O)C(=O)N[C@@H](C)C(=O)N[C@@H](C)C(=O)N[C@@H](CC(N)=O)C(=O)N[C@H](C(=O)N[C@@H](C)C(=O)N[C@@H](C)C(=O)N[C@H](C(=O)N[C@@H](CC(C)C)C(=O)N[C@@H](CCCCN)C(N)=O)[C@@H](C)O)C(C)C)C(C)C)[C@@H](C)CC)[C@@H](C)O)[C@@H](C)CC)[C@@H](C)O)[C@@H](C)O)C(C)C)[C@@H](C)CC,Escherichia coli,,"isolate RKI 6 A-6, CAMHB",,MIC,4 µg/mL
C=CCCC[C@](C)(N)C(=O)N[C@@H](C)C(=O)N[C@@H](Cc1ccc(O)cc1)C(=O)N[C@@H](Cc1ccccc1)C(=O)N[C@@](C)(CCCC=C)C(=O)N[C@@H](CC(C)C)C(=O)N[C@@H](CCCCN)C(=O)N[C@@H](CC(C)C)C(=O)N[C@@H](C)C(=O)NCC(=O)N[C@@H](CCCNC(=N)N)C(=O)N[C@@H](Cc1c[nH]c2ccccc12)C(N)=O,HIV-1,,,,EC50,5000 nM
Cc1cc(C)cc(S(=O)(=O)c2c(C(=O)NC3CC4(C3)CN(Cc3n[nH]c(=O)[nH]3)C4)[nH]c3ccc(Cl)cc23)c1,HIV-1,viral replication,"MT-4, K103N/Y181C mutant (RES056)",,EC50,7450 ± 2250 nM
Cc1cc(/C=C/C#N)cc(C)c1Nc1nc(Nc2ccc(C#N)cc2)ncc1N,HIV-1,"viral replication, single-round infection",RT mutant G190A,,EC50,0.3 nM
CC[C@H](C)[C@@H]([C@@H](CC(=O)N1CCC[C@H]1[C@H](OC)[C@@H](C)C(=O)N[C@H](C)[C@@H](O)c1ccccc1)OC)N(C)C(=O)[C@@H](NC(=O)[C@H](C(C)C)N(C)C(=O)OCc1ccc(NC(=O)[C@H](CCCNC(N)=O)NC(=O)[C@@H](NC(=O)Cn2cc(CCC(=O)NCCC(=O)N(C)CC(=O)N(C)CC(=O)N(C)CC(=O)N(C)CC(=O)N(C)CC(=O)N(C)CC(=O)N(C)CC(=O)N(C)CC(=O)N(C)CC(=O)N(C)CC(=O)N[C@@H](C)C(=O)NC3CN(C)Cc4cc5cc(c4)CN(C)CC(C(N)=O)NC(=O)[C@H](C(C)(C)C)NC(=O)[C@H](CC(=O)O)NC(=O)[C@H](Cc4ccc(O)cc4)NC(=O)[C@H](Cc4ccccc4)NC(=O)[C@H](CC(=O)O)NC(=O)[C@H](CCC(=O)O)NC(=O)[C@H](CSC5)NC(=O)[C@@H](C)NC(=O)[C@H](Cc4cccc5ccccc45)NC(=O)[C@H](CCC(=O)O)NC(=O)[C@H](CC(N)=O)NC(=O)[C@@H](C)NC3=O)nn2)C(C)C)cc1)C(C)C (stereo partly drawn),,,"naive CD-1 mouse, plasma","intravenous, 3 mg/kg",plasma half-life,0.69 h

# Repeated from above:
SMILES,tested on,test,system,setting,measurement,result
CCCCCCCCCCCCCCCC(=O)N[C@@H](CCC(=O)NCCOCCOCCC(=O)NCCOCCOCCC(=O)NCCCC[C@H](NC(=O)[C@H](CC(=O)O)NC(=O)[C@H](CC(C)C)NC(=O)[C@H](Cc1ccc(O)cc1)NC(=O)[C@H](CCCCN)NC(=O)[C@H](CO)NC(=O)[C@H](Cc1ccc(O)cc1)NC(=O)[C@H](CC(=O)O)NC(=O)[C@H](CO)NC(=O)[C@@H](NC(=O)[C@H](Cc1ccccc1)NC(=O)[C@@H](NC(=O)CNC(=O)[C@H](CCC(N)=O)NC(=O)[C@@H](CO)NC(=O)[C@@H](N)Cc1c[nH]cn1)[C@@H](C)O)[C@@H](C)O)C(=O)N[C@@H](CCCNC(=N)N)C(=O)N[C@@H](CCCNC(=N)N)C(=O)N[C@@H](C)C(=O)N[C@@H](CCC(N)=O)C(=O)N[C@@H](CC(=O)O)C(=O)N[C@@H](Cc1ccccc1)C(=O)N[C@H](C(=O)N[C@@H](CCC(N)=O)C(=O)N[C@@H](Cc1c[nH]c2ccccc12)C(=O)N[C@@H](CC(C)C)C(=O)N[C@@H](CC(C)C)C(=O)N[C@@H](CC(N)=O)C(=O)N[C@H](C(=O)NCC(=O)NCC(=O)N1CCC[C@H]1C(=O)N[C@@H](CO)C(=O)N[C@@H](CO)C(=O)NCC(=O)N[C@@H](C)C(=O)N1CCC[C@H]1C(=O)N1CCC[C@H]1C(=O)N1CCC[C@H]1C(=O)N[C@@H](CO)C(N)=O)[C@@H](C)O)C(C)C)C(=O)O,,item: ALP,"rhesus monkey, female","subcutaneous, 60 µg/kg once daily, 28 days",serum enzyme activity,260 ± 65.2 U/L
Cc1cccc(-c2cc(C#N)cc(Oc3c(C(F)(F)F)ccn(Cc4n[nH]c(=O)n4C)c3=O)c2)c1,HIV-1,viral cytopathicity,"MT4, Y188L mutant",,EC50,760 ± 130 nM
CC(C)N1CCn2cc(C(=O)NCc3ccc(F)cc3F)c(=O)c(O)c2C1=O,HIV-1,"viral replication, single-round vector infection",IN T97A/G140S/Q148H,,EC50,103 ± 12.4 nM
